Published values pooled from the literature.
± marks the error that the study gave.
Sequence of UniProt P25123 (whole entry, unmodified, looked up): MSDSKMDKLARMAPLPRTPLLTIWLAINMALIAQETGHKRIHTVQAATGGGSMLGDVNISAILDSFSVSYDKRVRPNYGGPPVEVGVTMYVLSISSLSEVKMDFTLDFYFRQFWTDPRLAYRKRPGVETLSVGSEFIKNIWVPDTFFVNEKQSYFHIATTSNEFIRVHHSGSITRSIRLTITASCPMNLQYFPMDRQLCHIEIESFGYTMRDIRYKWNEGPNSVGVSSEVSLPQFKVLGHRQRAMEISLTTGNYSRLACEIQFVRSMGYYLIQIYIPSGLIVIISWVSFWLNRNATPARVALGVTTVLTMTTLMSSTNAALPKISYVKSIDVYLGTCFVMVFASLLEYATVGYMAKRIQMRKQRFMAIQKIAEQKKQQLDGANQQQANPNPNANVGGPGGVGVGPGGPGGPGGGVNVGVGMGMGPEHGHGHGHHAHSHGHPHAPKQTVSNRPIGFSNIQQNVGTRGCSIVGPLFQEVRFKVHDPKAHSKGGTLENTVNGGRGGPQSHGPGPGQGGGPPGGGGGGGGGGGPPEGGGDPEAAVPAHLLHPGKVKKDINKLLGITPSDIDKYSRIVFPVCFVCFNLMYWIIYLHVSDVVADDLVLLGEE
Sequence of UniProt P0A725 (whole entry, looked up): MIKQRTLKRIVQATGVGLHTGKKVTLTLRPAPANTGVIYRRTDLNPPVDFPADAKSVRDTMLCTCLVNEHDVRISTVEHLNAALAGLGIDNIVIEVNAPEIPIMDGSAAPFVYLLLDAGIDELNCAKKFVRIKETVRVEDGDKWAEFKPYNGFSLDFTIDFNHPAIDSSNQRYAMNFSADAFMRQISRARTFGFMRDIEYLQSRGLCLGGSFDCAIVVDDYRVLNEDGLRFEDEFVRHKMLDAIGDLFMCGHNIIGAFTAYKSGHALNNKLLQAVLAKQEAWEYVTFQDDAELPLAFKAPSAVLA
Sequence of UniProt P9WGR1 (whole entry, looked up): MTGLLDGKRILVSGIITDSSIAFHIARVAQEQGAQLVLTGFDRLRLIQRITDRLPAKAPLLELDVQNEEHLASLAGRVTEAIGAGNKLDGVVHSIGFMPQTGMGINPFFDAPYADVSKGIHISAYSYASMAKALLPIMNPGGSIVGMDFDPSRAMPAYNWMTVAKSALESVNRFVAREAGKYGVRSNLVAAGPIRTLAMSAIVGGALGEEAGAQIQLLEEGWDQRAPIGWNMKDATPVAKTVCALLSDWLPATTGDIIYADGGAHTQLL
Sequence of UniProt P34972 (whole entry, looked up): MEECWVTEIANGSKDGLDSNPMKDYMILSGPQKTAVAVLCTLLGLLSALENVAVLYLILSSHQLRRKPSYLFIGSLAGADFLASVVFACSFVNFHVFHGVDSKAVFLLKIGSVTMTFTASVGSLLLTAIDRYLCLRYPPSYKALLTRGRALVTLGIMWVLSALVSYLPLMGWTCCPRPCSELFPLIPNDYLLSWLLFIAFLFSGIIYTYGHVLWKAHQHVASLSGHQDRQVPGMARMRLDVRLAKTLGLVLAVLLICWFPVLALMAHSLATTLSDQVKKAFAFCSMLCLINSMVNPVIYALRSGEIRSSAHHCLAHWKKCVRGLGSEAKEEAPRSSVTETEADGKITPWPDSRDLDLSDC
Sequence of UniProt P07550 (whole entry, looked up): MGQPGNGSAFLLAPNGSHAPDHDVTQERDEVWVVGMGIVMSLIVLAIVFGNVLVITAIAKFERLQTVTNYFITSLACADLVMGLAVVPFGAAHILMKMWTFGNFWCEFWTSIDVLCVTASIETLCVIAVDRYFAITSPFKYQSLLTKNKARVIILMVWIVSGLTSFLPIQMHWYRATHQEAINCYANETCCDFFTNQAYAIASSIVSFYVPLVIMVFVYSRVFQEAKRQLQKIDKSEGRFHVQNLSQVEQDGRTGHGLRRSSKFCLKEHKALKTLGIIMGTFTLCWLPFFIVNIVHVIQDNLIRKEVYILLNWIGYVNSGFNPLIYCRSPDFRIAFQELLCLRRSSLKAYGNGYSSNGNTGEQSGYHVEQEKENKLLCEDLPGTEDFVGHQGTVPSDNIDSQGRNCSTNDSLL
Sequence of UniProt Q62968 (whole entry, looked up): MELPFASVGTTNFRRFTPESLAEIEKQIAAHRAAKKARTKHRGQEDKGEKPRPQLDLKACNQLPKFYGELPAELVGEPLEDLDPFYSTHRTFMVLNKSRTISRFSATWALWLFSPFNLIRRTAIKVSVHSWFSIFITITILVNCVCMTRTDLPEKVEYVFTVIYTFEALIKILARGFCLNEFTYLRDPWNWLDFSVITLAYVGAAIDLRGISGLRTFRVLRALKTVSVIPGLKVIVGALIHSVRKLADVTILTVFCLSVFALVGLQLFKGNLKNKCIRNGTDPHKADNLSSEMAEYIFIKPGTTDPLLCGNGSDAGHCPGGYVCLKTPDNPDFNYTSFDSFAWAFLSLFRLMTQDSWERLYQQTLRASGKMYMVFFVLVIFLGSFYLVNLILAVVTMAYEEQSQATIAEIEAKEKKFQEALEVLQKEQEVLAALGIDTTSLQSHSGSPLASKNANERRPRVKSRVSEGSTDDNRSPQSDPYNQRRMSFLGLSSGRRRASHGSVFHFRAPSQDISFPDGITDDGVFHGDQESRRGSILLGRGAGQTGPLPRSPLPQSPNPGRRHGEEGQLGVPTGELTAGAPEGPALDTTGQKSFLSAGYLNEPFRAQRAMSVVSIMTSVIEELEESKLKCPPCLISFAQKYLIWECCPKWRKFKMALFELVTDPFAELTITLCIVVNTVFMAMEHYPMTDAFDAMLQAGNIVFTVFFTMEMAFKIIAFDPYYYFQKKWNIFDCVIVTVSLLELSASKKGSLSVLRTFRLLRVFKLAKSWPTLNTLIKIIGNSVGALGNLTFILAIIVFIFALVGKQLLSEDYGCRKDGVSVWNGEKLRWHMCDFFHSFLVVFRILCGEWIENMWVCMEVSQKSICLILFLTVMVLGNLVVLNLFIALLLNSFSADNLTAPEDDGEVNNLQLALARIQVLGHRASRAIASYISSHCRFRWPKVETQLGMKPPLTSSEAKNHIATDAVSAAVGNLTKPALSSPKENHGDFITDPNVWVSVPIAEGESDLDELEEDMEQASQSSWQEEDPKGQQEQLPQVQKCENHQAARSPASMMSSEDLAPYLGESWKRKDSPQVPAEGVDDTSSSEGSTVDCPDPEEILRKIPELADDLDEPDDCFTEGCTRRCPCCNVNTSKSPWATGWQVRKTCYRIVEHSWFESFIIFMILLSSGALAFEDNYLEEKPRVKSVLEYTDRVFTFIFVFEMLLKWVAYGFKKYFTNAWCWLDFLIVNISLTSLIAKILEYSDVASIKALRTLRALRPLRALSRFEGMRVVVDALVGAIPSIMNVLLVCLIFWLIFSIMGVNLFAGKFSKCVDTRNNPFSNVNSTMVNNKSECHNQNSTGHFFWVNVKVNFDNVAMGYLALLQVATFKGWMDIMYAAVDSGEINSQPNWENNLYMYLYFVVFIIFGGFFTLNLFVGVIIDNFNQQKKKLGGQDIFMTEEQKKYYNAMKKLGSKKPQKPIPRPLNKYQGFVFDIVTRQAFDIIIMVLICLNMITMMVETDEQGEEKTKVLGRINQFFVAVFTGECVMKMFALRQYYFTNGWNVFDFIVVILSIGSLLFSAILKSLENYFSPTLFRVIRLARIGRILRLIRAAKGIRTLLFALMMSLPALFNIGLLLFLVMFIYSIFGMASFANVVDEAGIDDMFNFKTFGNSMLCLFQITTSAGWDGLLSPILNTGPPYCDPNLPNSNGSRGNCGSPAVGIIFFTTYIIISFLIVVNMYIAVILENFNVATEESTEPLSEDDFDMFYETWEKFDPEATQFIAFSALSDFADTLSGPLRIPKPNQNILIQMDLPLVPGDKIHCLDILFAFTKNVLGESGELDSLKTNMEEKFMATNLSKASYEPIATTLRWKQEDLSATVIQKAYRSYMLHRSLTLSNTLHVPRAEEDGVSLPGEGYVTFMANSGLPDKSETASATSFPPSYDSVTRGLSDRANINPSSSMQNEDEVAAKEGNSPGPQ

| Compound | tested on | test | test system | setting | scale | quantity | result |
| --- | --- | --- | --- | --- | --- | --- | --- |
| CC[C@H](C)[C@H](N)C(=O)N[C@H](C(=O)N[C@@H](CO)C(=O)N[C@H](C(=O)N[C@H](C(=O)NCC(=O)N[C@@H](CC(=O)O)C(=O)N[C@@H](Cc1c[nH]c2ccccc12)C(=O)N[C@H](C(=O)N[C@@H](CCCCN)C(=O)N[C@@H](CC(C)C)C(=O)N[C@H](C(=O)N[C@H](C(=O)N[C@@H](CC(=O)O)C(=O)N[C@H](C(=O)N[C@H](C(=O)N[C@@H](CC(N)=O)C(=O)N[C@@H](CCCCN)C(=O)N[C@@H](Cc1ccccc1)C(=O)N[C@H](C(=O)N[C@@H](CCCCN)C(=O)N[C@@H](CCCCN)C(=O)O)[C@@H](C)O)C(C)C)[C@@H](C)O)[C@@H](C)CC)[C@@H](C)CC)C(C)C)[C@@H](C)CC)[C@@H](C)O)[C@@H](C)CC |  | lipid vesicle binding, stopped-flow FRET | POPC vesicles | pH 7.5 |  | kon | 12000 M^–1 s^–1 |
| CCN(Cc1ccccc1)C(=O)CCc1nc(CN2CCN(C(=O)Cc3ccc(OC)c(OC)c3)CC2)no1 | Scn10a (Rattus norvegicus, UniProt Q62968) | whole-cell patch clamp | rat DRG neurons | 300 nM |  | V1/2 of inactivation | -64.5 ± 10.1 mV |
| C=C(C)C1C2OC(=O)C1C1(O)CC3OC34C(=O)OC2C14C (stereo not drawn) | Rdl (Drosophila melanogaster, UniProt P25123, A301V) | GABA-induced current, antagonist |  | together with: GABA at EC50 |  | Hill coefficient | 1.32 ± 0.23 |
| CC(C)C[C@H](NC=O)C(=O)N[C@@H](C)C(=O)N[C@@H](C)C(=O)N[C@@H](CC(=O)O)C(=O)N[C@@H](CC(C)C)C(=O)N[C@@H](CC(C)C)C(=O)N[C@@H](C)C(=O)N[C@@H](C)C(=O)N[C@@H](CC(C)C)C(=O)NCC(=O)N[C@@H](CC(=O)O)C(=O)N[C@@H](CC(C)C)C(=O)N[C@@H](C)C(=O)N[C@@H](CCCCN)C(=O)N[C@@H](Cc1c[nH]c2ccccc12)C(=O)N[C@@H](CC(C)C)C(=O)N[C@@H](CC(C)C)C(=O)N[C@@H](CC(=O)O)C(=O)N[C@@H](C)C(=O)N[C@@H](CC(C)C)C(=O)N[C@@H](C)C(=O)N[C@@H](CCCCN)C(=O)N[C@@H](C)C(=O)N[C@@H](C)C(=O)N[C@@H](CCCCN)C(=O)N[C@@H](CCCCN)C(=O)O (racemic) |  | membrane binding, stopped-flow FRET | POPC vesicles | pH 7.5, room temperature |  | koff | 0.11 s⁻¹ |
| CC[C@H](C)[C@H](NC(=O)[C@H](CC(N)=O)NC(=O)[C@H](CCCCN)NC(=O)[C@@H](NC(=O)[C@@H](N)CC(C)C)[C@@H](C)CC)C(=O)NCC(=O)N[C@H](C(=O)N[C@H](C(=O)N[C@H](C(=O)N[C@@H](CO)C(=O)N[C@@H](CCCCN)C(=O)N[C@H](C(=O)N[C@H](C(=O)N[C@@H](CCCCN)C(=O)N[C@H](C(=O)N[C@H](C(=O)N[C@@H](Cc1c[nH]c2ccccc12)C(=O)N[C@@H](CCCCN)C(=O)N[C@@H](Cc1ccccc1)C(=O)N[C@H](C(=O)N[C@@H](CC(=O)O)C(=O)N[C@@H](CC(=O)O)C(=O)O)[C@@H](C)O)C(C)C)[C@@H](C)O)[C@@H](C)CC)[C@@H](C)CC)C(C)C)[C@@H](C)CC)[C@@H](C)O |  | lipid vesicle binding, stopped-flow FRET | POPC vesicles | pH 7.5 |  | kon | 15000 M^–1 s^–1 |
| C[C@@](O)(C(F)F)[C@H](NC(=O)c1ccc(C#CC#CC2CC2)cc1)C(=O)NO | UDP-3-O-acyl-N-acetylglucosamine deacetylase (Escherichia coli K-12, UniProt P0A725) | enzyme activity, inhibitor |  |  |  | EI* complex half-life | ~2 h |
| CC(C)C[C@H](NC(=O)[C@H](Cc1ccccc1)NC(=O)CNC(=O)CNC(=O)[C@@H](N)Cc1ccc(O)cc1)C(=O)O |  | K+ current, agonist, photo-uncaging | rat locus coeruleus neurons |  |  | delay to current onset | 50 to 100 ms |
| C[C@H](NC(=O)[C@@H]1CCCN1C(=O)[C@H](Cc1ccc(O)cc1)NC(=O)CNC(=O)[C@H](CO)NC(=O)[C@H](Cc1ccccc1)NC(=O)[C@@H](N)[C@@H](C)O)C(=O)N[C@@H](Cc1ccccc1)C(=O)O |  | agonist | Wistar rat hippocampus membranes | 0.6 µM, 1 h, 30 °C | relative to: baseline | Emax | 86% |
| COC(=O)c1ccc2c(C=C3C(=O)C4CCN3CC4)cn(Cc3ccccc3)c2c1 | CNR2 (Homo sapiens, UniProt P34972) | forskolin-stimulated | CHO-hCB2 | 10 µM | relative to: basal | increase in cAMP | 218 ± 46.3% |
| CCCCCCc1ccc(Oc2ccccc2Br)c(O)c1 | inhA (Mycobacterium tuberculosis, UniProt P9WGR1) | inhibitor |  |  | relative to: k6 from global fit over koff | koff fold slower than k6 | 5 fold |
| CC[C@H](C)[C@H](NC(=O)CNC(=O)[C@H](CC(=O)O)NC(=O)[C@H](CC(C)C)NC(=O)[C@@H](NC(=O)[C@H](CC(N)=O)NC(=O)[C@H](CCC(N)=O)NC(=O)CNC(=O)[C@H](CC(C)C)NC(=O)[C@H](CCCCN)NC(=O)[C@H](CCC(=O)O)NC(=O)[C@@H](NC(=O)[C@H](CCCCN)NC(=O)[C@H](CCC(=O)O)NC(=O)[C@H](Cc1ccccc1)NC(=O)[C@H](CC(C)C)NC(=O)[C@H](CCCCN)NC(=O)[C@H](Cc1c[nH]c2ccccc12)NC(=O)[C@@H](N)CCC(=O)O)[C@@H](C)CC)[C@@H](C)CC)C(=O)N[C@H](C(=O)N[C@@H](CCCCN)C(=O)N[C@@H](CC(C)C)C(=O)NCC(=O)N1CCC[C@H]1C(=O)N[C@@H](CC(C)C)C(=O)N[C@@H](CC(C)C)C(=O)N[C@@H](C)C(=O)N[C@@H](CC(C)C)C(=O)N[C@@H](CC(C)C)C(=O)NCC(=O)N[C@@H](CCC(N)=O)C(=O)N[C@@H](CC(C)C)C(=O)N[C@H](C(=O)N[C@@H](CCC(N)=O)C(=O)N[C@H](C(=O)N[C@@H](C)C(=O)N[C@@H](CC(C)C)C(N)=O)[C@@H](C)CC)[C@@H](C)O)[C@@H](C)CC |  | membrane binding, stopped-flow FRET | POPC vesicles | pH 7.5, room temperature |  | koff | 7.5 s⁻¹ |
| CC[C@H](C)[C@H](N)C(=O)N[C@H](C(=O)N[C@@H](CCCCN)C(=O)N[C@H](C(=O)N[C@H](C(=O)NCC(=O)N[C@@H](CC(=O)O)C(=O)N[C@@H](CC(C)C)C(=O)N[C@H](C(=O)N[C@@H](CCCCN)C(=O)N[C@@H](Cc1c[nH]c2ccccc12)C(=O)N[C@H](C(=O)N[C@H](C(=O)N[C@@H](CC(=O)O)C(=O)N[C@H](C(=O)N[C@H](C(=O)N[C@@H](CC(N)=O)C(=O)N[C@@H](CO)C(=O)N[C@@H](Cc1ccccc1)C(=O)N[C@H](C(=O)N[C@@H](CCCCN)C(=O)N[C@@H](CCCCN)C(=O)O)[C@@H](C)O)C(C)C)[C@@H](C)O)[C@@H](C)CC)[C@@H](C)CC)C(C)C)[C@@H](C)CC)[C@@H](C)O)[C@@H](C)CC |  | lipid vesicle binding, stopped-flow FRET | POPC vesicles | pH 7.5 |  | kon | 14000 M^–1 s^–1 |
| CCOC(=O)C1C(OC(c2ccc(Cl)cc2)c2ccc(Cl)cc2)CC2CCC1N2C (single isomer, unassigned) | ADRB2 (Homo sapiens, UniProt P07550) | binding, radioligand displacement |  | inactive if below 75% at 10000 nM, together with: [3H]CGP-12177 |  | Ki | inactive |
| CC[C@H](C)[C@H](NC(=O)[C@H](CCCCN)NC(=O)CNC(=O)[C@@H](NC(=O)[C@@H](NC(=O)[C@H](CC(N)=O)NC(=O)[C@H](CC(=O)O)NC(=O)[C@@H](N)CC(=O)O)C(C)C)[C@@H](C)CC)C(=O)N[C@@H](Cc1c[nH]c2ccccc12)C(=O)N[C@@H](CO)C(=O)N[C@@H](CCCCN)C(=O)N[C@@H](CC(C)C)C(=O)N[C@H](C(=O)N[C@H](C(=O)N[C@H](C(=O)N[C@H](C(=O)N[C@H](C(=O)N[C@@H](CCCCN)C(=O)N[C@H](C(=O)N[C@@H](Cc1ccccc1)C(=O)N[C@H](C(=O)N[C@@H](CCCCN)C(=O)O)[C@@H](C)O)[C@@H](C)CC)[C@@H](C)O)[C@@H](C)CC)C(C)C)[C@@H](C)O)[C@@H](C)CC |  | lipid vesicle dissociation | POPC vesicles | pH 7.5 |  | koff | 0.48 s^–1 |
| O=C(N=P12CN3CN(CN(C3)C1)C2)c1ccccn1.[Cl][Pd][Cl] | Albumin (ALB, Homo sapiens, UniProt P02768) | binding, circular dichroism |  | 20 h, pH 7.39, 37 °C |  | saturating equivalents | 4 equivalents |

A few entries again:
| Compound | tested on | test | test system | setting | scale | quantity | result |
| --- | --- | --- | --- | --- | --- | --- | --- |
| C=C(C)C1C2OC(=O)C1C1(O)CC3OC34C(=O)OC2C14C (stereo not drawn) | Rdl (Drosophila melanogaster, UniProt P25123, A301V) | GABA-induced current, antagonist |  | together with: GABA at EC50 |  | Hill coefficient | 1.32 ± 0.23 |
